Measured values pooled from the literature.
Every numbered part comes from another study and shows a few of its results, in no order.
Chain of UniProt Q8IYT8 (whole entry, looked up): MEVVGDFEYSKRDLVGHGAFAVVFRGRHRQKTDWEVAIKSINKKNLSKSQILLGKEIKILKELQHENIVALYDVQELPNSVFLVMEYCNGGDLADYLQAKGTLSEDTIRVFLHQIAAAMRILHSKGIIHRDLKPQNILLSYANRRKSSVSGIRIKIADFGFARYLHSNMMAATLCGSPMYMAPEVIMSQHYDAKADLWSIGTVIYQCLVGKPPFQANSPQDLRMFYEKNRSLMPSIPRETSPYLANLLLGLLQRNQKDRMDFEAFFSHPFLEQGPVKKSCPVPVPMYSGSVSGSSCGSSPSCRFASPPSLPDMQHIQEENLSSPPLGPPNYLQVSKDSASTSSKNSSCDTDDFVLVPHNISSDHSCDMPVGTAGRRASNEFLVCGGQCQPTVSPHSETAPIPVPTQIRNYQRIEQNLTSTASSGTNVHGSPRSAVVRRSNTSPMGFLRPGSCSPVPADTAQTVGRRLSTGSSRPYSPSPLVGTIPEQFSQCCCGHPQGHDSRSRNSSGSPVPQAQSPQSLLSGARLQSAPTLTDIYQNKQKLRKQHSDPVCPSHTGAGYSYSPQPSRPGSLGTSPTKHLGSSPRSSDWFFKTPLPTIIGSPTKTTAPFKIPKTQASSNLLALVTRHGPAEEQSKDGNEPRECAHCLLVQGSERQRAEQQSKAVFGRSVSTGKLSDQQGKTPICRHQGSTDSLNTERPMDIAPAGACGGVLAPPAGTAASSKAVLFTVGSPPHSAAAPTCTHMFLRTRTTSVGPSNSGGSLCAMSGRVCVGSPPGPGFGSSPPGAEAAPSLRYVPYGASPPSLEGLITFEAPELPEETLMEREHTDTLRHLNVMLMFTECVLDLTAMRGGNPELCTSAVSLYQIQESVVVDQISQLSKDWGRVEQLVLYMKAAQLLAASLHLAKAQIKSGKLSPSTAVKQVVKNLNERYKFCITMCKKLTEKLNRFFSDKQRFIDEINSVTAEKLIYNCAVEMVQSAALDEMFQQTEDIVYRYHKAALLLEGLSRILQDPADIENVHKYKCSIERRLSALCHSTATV
Chain of UniProt Q6P2M8 (whole entry, looked up): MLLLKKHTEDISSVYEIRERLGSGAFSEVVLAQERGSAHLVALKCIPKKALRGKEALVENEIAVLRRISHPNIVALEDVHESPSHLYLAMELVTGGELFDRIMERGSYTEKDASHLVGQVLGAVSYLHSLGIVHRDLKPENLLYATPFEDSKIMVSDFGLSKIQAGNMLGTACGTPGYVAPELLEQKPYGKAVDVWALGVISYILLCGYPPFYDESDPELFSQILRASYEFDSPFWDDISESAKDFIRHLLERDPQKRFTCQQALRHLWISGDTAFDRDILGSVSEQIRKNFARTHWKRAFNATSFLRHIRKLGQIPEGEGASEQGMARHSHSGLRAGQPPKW
Chain of UniProt Q9Y243 (whole entry, looked up): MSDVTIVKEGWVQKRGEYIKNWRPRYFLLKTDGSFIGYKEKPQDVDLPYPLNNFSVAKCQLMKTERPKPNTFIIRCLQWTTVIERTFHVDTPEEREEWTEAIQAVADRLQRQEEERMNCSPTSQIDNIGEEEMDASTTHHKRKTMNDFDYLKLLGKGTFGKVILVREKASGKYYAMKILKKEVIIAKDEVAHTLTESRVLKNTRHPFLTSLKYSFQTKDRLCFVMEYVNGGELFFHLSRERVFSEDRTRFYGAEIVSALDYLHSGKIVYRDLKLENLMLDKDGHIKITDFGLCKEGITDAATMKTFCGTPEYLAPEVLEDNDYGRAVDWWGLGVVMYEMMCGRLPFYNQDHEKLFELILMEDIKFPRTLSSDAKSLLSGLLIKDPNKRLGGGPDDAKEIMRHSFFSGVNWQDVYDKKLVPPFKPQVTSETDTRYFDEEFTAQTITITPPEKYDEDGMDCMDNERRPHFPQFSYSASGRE
Chain of UniProt Q8WU08 (whole entry, looked up): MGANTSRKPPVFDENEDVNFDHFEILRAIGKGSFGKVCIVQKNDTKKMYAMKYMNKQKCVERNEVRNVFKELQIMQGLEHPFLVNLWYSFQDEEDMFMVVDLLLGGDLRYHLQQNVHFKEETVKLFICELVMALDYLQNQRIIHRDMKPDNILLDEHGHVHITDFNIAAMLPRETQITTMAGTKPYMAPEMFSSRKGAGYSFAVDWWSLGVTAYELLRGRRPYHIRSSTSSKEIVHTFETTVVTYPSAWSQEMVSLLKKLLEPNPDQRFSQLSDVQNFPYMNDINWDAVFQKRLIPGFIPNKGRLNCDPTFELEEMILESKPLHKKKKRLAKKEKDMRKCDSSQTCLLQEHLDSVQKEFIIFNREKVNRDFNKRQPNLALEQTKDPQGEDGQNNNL
Chain of UniProt Q14680 (whole entry, looked up): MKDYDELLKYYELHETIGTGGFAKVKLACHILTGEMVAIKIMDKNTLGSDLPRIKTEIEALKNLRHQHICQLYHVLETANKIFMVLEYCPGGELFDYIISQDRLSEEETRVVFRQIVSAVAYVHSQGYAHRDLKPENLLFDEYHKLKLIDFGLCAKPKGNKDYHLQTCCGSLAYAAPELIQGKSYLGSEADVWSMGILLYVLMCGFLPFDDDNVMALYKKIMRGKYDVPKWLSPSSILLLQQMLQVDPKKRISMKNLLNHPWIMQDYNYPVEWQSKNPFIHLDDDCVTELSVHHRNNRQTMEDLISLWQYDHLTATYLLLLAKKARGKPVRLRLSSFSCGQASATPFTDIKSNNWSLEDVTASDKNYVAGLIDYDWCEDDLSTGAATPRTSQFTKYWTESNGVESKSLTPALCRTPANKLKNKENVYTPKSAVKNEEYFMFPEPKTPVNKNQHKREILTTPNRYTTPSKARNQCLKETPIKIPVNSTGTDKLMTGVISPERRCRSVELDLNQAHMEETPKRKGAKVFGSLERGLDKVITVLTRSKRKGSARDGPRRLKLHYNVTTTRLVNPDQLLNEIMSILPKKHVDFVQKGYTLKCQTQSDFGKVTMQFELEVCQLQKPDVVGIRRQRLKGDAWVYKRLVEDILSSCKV
Chain of UniProt P41743 (whole entry, looked up): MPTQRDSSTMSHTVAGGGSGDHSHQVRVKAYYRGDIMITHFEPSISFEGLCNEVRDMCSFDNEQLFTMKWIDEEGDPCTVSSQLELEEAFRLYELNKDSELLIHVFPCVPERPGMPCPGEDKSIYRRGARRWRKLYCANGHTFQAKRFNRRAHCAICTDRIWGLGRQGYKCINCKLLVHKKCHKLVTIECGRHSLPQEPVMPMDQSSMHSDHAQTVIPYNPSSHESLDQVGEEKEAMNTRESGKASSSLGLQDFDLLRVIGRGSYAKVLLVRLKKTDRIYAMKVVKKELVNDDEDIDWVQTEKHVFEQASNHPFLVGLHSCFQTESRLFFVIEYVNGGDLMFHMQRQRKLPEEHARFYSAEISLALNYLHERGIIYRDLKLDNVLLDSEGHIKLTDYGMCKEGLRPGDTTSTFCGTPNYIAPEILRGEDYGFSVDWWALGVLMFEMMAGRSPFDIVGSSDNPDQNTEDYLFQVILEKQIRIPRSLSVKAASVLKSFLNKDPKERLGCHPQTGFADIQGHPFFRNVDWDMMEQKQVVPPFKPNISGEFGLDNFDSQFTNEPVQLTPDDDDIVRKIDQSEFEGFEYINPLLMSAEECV

Series 1 — cell line: A-375; concentration: 100 µM; time: 36 h
SMILES | viability
Oc1cc(O)c(Cl)cn1 | 109%
O=C(C1CCCCC1)N1CC(=O)N2CCc3ccccc3C2C1 (centres unmarked) | 92.5%
CCC(=O)NS(=O)(=O)c1ccc(-c2c(-c3ccccc3)noc2C)cc1 | 106%
O=c1oc2cc(O)ccc2s1 | 107%
CC(C)Cc1ccc(C(C)C(=O)O)cc1 (centres unmarked) | 98.4%
Cc1ccccc1C(=O)Nc1ccc(C(=O)N2CCCC(N(C)C)c3ccccc32)cc1 (centres unmarked) | 29.6%

Series 2 — effect on: cell-free assay; technique: competition with immobilised ligand; concentration: 0.1 µM
Compound: CS(=O)(=O)N1CCCC(NC(=O)[C@H](CCC2CCCCC2)NC(=O)c2ccc(CNc3ncnc4c3nnn4-c3ccccc3)cc2)C1 (some centres unmarked)
target | remaining binding
MELK (Homo sapiens, UniProt Q14680) | 100%
AKT3 (Homo sapiens, UniProt Q9Y243) | 86%
PNCK (Homo sapiens, UniProt Q6P2M8) | 100%
PRKCI (Homo sapiens, UniProt P41743) | 100%
STK32A (Homo sapiens, UniProt Q8WU08) | 57%
ULK2 (Homo sapiens, UniProt Q8IYT8) | 100%

Series 3 — cell line: mouse MPNST tumor cells; technique: high-content nuclear imaging; item: cell number; concentration: 10 µM; time: 12 h; notes: mean of 2 replicates; relative to: plate mean; reading: higher = more cells
Compound | nuclei count [z-score]
Nc1ccc(-c2ccc3ncc4ccc(=O)n(-c5cccc(C(F)(F)F)c5)c4c3c2)cn1 | -4.42
CCN(c1nc(N)c(C(=O)N=C(N)N)nc1Cl)C(C)C | 2.9
Nc1ncnc2c1c(-c1cnc3[nH]ccc3c1)nn2C1CCCC1 | 0.105
Fc1ccc(-c2c3cccc(C(F)(F)F)c3nn2Cc2ccc(F)cc2Cl)cc1 | 2.71
Cc1cccc2c1CC[C@H](CN1CCC(c3c(Cl)cccc3Cl)CC1)C[C@@H]2O | -0.494
Nc1c2ccccc2nc2ccccc12 | -4.24
COc1ncnc(NS(=O)(=O)c2ccc(N)cc2)c1OC | 1.09

Series 4 — effect on: enzyme activity; action: inhibitor; concentration: 0.5 µM; relative to: control
Target: Epidermal growth factor receptor (EGFR, Homo sapiens, UniProt P00533)
SMILES | remaining activity [%]
O=C1NC(=O)C(c2cn(CCCO)c3ncccc23)=C1c1cnccn1 | 95.9
NCCNc1ncc(C(N)=O)c(Nc2cccc(C(F)(F)F)c2)n1 | 87.9
COc1cc2ncnc(Nc3ccc(Oc4ccccc4)cc3)c2cc1OC | 31.6
COc1ccc(C(=O)Nc2sc3c(c2C(N)=O)CCCC3)cc1OC | 99.9
Cc1nc(-c2ccccc2)c(-c2ccncc2)o1 | 89.4
Nc1ncnc2n[nH]c(Nc3ccc(F)cc3)c12 | 100
CCOC(=O)c1c(C)[nH]c(/C=C2\C(=O)Nc3ccccc32)c1C | 92.2
COc1cc2nccc(Oc3ccc(NC(=S)NC(=O)c4ccccc4C)cc3)c2cc1OC | 89.7
O=C(CCCc1ccc(-c2ccccc2F)cc1)Nc1ccc(O)cc1 | 87.9
O=C(O)c1ccc2c3c1cccc3c(=O)n1c3ccccc3nc21 | 96.5
CO[C@H]1C[C@@H]2CC[C@@H](C)[C@@](O)(O2)C(=O)C(=O)N2CCCC[C@H]2C(=O)O[C@H]([C@H](C)C[C@@H]2CC[C@@H](O)[C@H](OC)C2)CC(=O)[C@H](C)/C=C(\C)[C@@H](O)[C@@H](OC)C(=O)[C@H](C)C[C@H](C)/C=C/C=C/C=C/1C | 93.3
Cn1sc(=O)n(Cc2ccccc2)c1=O | 105
O=C1NC(=O)C(c2cn(CCCn3ccnc3)c3ccccc23)=C1Nc1ccccc1 | 95.1
O=c1c2ccccc2[nH]c(=S)n1CCN1CCC(=C(c2ccc(F)cc2)c2ccc(F)cc2)CC1 | 101
Nc1[nH]nc2nc3ccccc3nc12 | 96.4
COc1ccc(OC)c2c(=S)c3ccccc3[nH]c12 | 91
OCC(O)CCON=C1C(c2c(O)[nH]c3ccccc23)=Nc2ccccc21 (centres unmarked) | 88.1
CN(C)c1ccc(C=C2C(=O)Nc3ccccc32)cc1 | 92.1
CC(C)[C@H](CO)Nc1nc(Nc2cc(N)cc(Cl)c2)c2ncn(C(C)C)c2n1 | 93.9

Repeated from above (series 4):
SMILES | remaining activity [%]
O=C(O)c1ccc2c3c1cccc3c(=O)n1c3ccccc3nc21 | 96.5
CO[C@H]1C[C@@H]2CC[C@@H](C)[C@@](O)(O2)C(=O)C(=O)N2CCCC[C@H]2C(=O)O[C@H]([C@H](C)C[C@@H]2CC[C@@H](O)[C@H](OC)C2)CC(=O)[C@H](C)/C=C(\C)[C@@H](O)[C@@H](OC)C(=O)[C@H](C)C[C@H](C)/C=C/C=C/C=C/1C | 93.3
COc1ccc(C(=O)Nc2sc3c(c2C(N)=O)CCCC3)cc1OC | 99.9
O=C1NC(=O)C(c2cn(CCCn3ccnc3)c3ccccc23)=C1Nc1ccccc1 | 95.1
COc1ccc(OC)c2c(=S)c3ccccc3[nH]c12 | 91
O=C1NC(=O)C(c2cn(CCCO)c3ncccc23)=C1c1cnccn1 | 95.9
